Experimental data from different studies.
Numbered parts are unrelated; each lists some results of a single study. Positions count from the first letter of the parent shown.

Block 1
Molecule: PhoQ, residues 284 288 289 292 302 303 WVSSAF
Technique: Sort-seq
Item: YFP reporter
Medium: E. coli
Setting: PhoQ-PhoP variant library
Added: 10 µM Mg2+
Relative to: high Mg2+ state
Direction: higher = stronger signaling
Measurement: fold induction
PhoP, residues 12 14 15 18 19 VGHWL (Escherichia coli, UniProt P23836): 1.53
PhoP, residues 12 14 15 18 19 NFFVT (Escherichia coli, UniProt P23836): 10.1
PhoP, residues 12 14 15 18 19 LHHYF (Escherichia coli, UniProt P23836): 3.73

Block 2
Target: CCND3, cyclin fold, Cln2 fusion (human)
Technique: yeast growth competition, sequencing
Medium: yeast
Setting: weak parent motif
Relative to: not given
Direction: higher = stronger binding
Measurement: normalised enrichment score
Starting sequence: CDKN1B docking peptide (human); PSACRNLFGPVDH; partner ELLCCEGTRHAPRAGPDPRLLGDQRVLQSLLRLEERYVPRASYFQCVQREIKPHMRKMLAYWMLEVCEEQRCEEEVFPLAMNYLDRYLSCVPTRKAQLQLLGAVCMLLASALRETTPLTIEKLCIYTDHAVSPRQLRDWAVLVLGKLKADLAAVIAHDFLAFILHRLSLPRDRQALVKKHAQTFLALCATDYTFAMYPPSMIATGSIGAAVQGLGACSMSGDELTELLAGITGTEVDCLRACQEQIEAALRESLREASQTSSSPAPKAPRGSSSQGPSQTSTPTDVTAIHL
P1N: 0.0851
H13K: 0.126
A3P: -0.00394
P10W: 0.125
L7K: 0.152
D12I: 0.0879
P10N: 0.122
P10M: 0.0457
L7N: 0.0627
S2L: 0.112
S2E: 0.103
P10Y: 0.19
N6V: 0.154
S2I: 0.136
C4K: 0.0649
R5V: 0.12
N6F: 0.0914
N6D: 0.149
R5H: 0.116
P10V: 0.117
V11C: 0.069
P1M: 0.115
N6I: 0.12

Block 3
Target: Interferon regulatory factor 7, full length, phosphomimetic (IRF7, Homo sapiens, UniProt Q92985, residues 1-503, S101K/S471D/S472D/S475D/S476D/S477D/S483D/S484D/S487D)
UniProt Q92985, sequence (whole entry, unmodified, looked up): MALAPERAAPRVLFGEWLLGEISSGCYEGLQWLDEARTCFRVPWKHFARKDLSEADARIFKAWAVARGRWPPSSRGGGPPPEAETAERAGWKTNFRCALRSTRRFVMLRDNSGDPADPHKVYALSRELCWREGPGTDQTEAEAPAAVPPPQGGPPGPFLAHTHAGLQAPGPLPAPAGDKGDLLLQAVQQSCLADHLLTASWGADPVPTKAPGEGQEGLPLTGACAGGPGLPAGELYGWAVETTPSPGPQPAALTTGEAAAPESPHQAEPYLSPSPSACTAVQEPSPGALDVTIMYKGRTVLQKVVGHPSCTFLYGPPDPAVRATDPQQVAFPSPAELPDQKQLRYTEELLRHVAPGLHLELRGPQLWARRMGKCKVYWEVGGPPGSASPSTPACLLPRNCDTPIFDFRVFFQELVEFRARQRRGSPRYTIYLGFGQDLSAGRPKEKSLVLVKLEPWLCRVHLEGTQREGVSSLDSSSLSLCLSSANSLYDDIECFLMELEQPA
Technique: protein-binding microarray
Form: double-stranded DNA, one strand shown
Medium: in vitro
Tested at: 250 nM
Setting: 60-bp whole probe
Added: salmon DNA 0.4 mg/ml
Relative to: random background probes
Direction: higher = stronger binding
Measurement: log fluorescence
Shared flanks, not repeated: GCCTAGCAC … GTCTTGATTCGCTTGACGCTGCTG
GACGAACTTAGTATCGAGACGTGCTAG: 0.268 z-score
TTAGAACTGAGCCTCGATTAGTGCTAG: 0.00832 z-score
GACGGTATCCTTATCCGGACGTGCTAG: 0.42 z-score
GACGGTATCGGGTATCGGTACGTGCTA: 0.517 z-score
TTAGGATTGGGTCTCGGTTAGTGCTAG: 1.04 z-score
GACGGTATCGGTATCGGGTCGTGCTAG: 2.08 z-score
CTAGGACTGCTTTTCCTTTAGTGCTAG: 1.72 z-score
GACGGCCTCGGTATCGGGACGTGCTAG: 0.257 z-score
GACGGTTTCGGGTATCGTGACGTGCTA: 6.89 z-score
AACGGTTTCGGACTGGGGACGTGCTAG: 4.26 z-score
TTAGGACTGCGTCTCGGTTAGTGCTAG: 0.0558 z-score
GACGGTCTTGGTTTCGGGACGTGCTAG: 3.55 z-score
TCAGGTCTCTTGTTCTCACTGTGCTAG: 0.683 z-score
TTAGATTTCGGGTATCGTTTAGTGCTA: 1.95 z-score
GACGATCTCAGCCTGGAGACGTGCTAG: -0.415 z-score
TGCTTTCTCTTTCACTACTCGTGCTAG: 3.67 z-score
GACGGTAACCTACTGCTGACGTGCTAG: -0.492 z-score
TCACATATGTTTTTCATACTGTGCTAG: 0.622 z-score
GACGATCTCAGACTGGAGACGTGCTAG: -0.276 z-score
TCAACCTTCGAGTCTGCAACTGTGCTA: -0.263 z-score
TTAGAACTGAGTCTCGTTTAGTGCTAG: 2.07 z-score
TCACTTTTGAGAGATGGAACTGTGCTA: 0.598 z-score
TTAGGTCTCGGTAGCGGTTAGTGCTAG: 0.143 z-score

Block 4
Target: JUNB, bZIP domain (human)
Technique: DHFR protein complementation
Medium: yeast
Setting: single substitutions, most at no-binding floor
Relative to: wild-type JUN-FOS pair
Direction: higher = stronger binding
Measurement: binding fitness
Starting sequence: JUN, bZIP domain (human); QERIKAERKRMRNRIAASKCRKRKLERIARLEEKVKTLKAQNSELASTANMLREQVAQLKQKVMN; partner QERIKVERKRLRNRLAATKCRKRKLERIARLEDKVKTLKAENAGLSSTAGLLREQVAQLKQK
L31M: -1.5 natural log
E54K: -1.28 natural log
S47G: -1.23 natural log
V35M: -1.55 natural log
R53L: -1.46 natural log
T37M: -0.776 natural log
K34R: -1.07 natural log
V56F: -1.28 natural log
K39V: -1.15 natural log
S43Q: -0.926 natural log
V35E: -1.54 natural log
V56R: -1.43 natural log
Q55A: -1.41 natural log
E44T: -1.24 natural log
E54D: -1.3 natural log

Some of these lines once more (block 3):
CTAGGACTGCTTTTCCTTTAGTGCTAG: 1.72 z-score
GACGGCCTCGGTATCGGGACGTGCTAG: 0.257 z-score
GACGGTTTCGGGTATCGTGACGTGCTA: 6.89 z-score
AACGGTTTCGGACTGGGGACGTGCTAG: 4.26 z-score
TTAGGACTGCGTCTCGGTTAGTGCTAG: 0.0558 z-score
GACGGTCTTGGTTTCGGGACGTGCTAG: 3.55 z-score
TCAGGTCTCTTGTTCTCACTGTGCTAG: 0.683 z-score
TTAGATTTCGGGTATCGTTTAGTGCTA: 1.95 z-score
GACGATCTCAGCCTGGAGACGTGCTAG: -0.415 z-score
